{"data": "Assay results from different studies", "AKT1": "RAC-alpha serine/threonine-protein kinase (AKT1, Homo sapiens, UniProt P31749)", "AKT1 S473D": "RAC-alpha serine/threonine-protein kinase (AKT1, Homo sapiens, UniProt P31749, S473D)", "note": "“And” joins repeats or separate records; there may be more than shown. Numbers after ± are the reported error."}
{"SMILES": "Cc1cccc(O[C@H]2CCC[C@@H](C(C)CNCc3ccncc3)C2)c1 (relative stereo)", "target": "AKT1", "assay": "enzyme activity, inhibitor", "conditions": "1 µM", "endpoint": "inhibition", "value": "3%"}
{"SMILES": "CCn1cc(C(=O)O)c(=O)c2c(N)c(F)c(NC3CCCCC3)cc21", "target": "AKT1", "assay": "kinase activity", "conditions": "0.1 µM, added: ATP at Km", "endpoint": "inhibition", "value": "0.9%"}
{"SMILES": "COc1c(OCCCN2CCOCC2)ccc2c1N=C(NC(=O)c1cnc(N)nc1)N1CCN=C21", "target": "AKT1", "assay": "kinase activity, inhibitor", "conditions": "1 µM", "scale": "relative to: untreated control", "endpoint": "remaining activity", "value": "92%"}
{"SMILES": "C=CC(=O)N1CCc2ccc(-n3c(=O)ccc4cnc5ccc(-c6cnn(C)c6)cc5c43)cc21", "target": "AKT1", "assay": "KINOMEscan", "conditions": "1 µM", "scale": "relative to: DMSO control", "endpoint": "remaining binding", "value": "100%"}
{"SMILES": "N[C@H]1CC[C@H](Nc2nccc(-c3cccnc3Oc3ccc(NC(=O)NC4CC4)c4ccccc34)n2)CC1", "target": "AKT1", "assay": "kinobead competition pulldown", "test system": "HEK293/HCT116 lysate mixture", "conditions": "10 µM, 1 h, 4 °C", "scale": "lower = stronger competition", "endpoint": "log2 LFQ intensity", "value": "19.5 and 20.8 and 21.6 and 21.5"}
{"SMILES": "COCC12C(=O)NC3C4(C(OC)CC1O)C1CC5(O)C(OC)C(O)C(OC(C)=O)(C1C5OC(=O)c1ccccc1)C3(O)C(OC)C24 (centres unmarked)", "target": "AKT1", "assay": "kinase activity, inhibitor, ProQinase kinase profiling", "conditions": "25 µM", "scale": "relative to: control", "endpoint": "remaining activity", "value": "108% and 107%"}
{"SMILES": "Cc1cccc(-c2ccc3nc(NC(=O)C4CCCCC4)nn3c2)c1", "target": "AKT1 S473D", "assay": "enzyme activity", "conditions": "10 µM", "endpoint": "remaining activity", "value": "99%"}
{"SMILES": "CNC1C[S+]2CC[S+]3CC[S+](C1)[Ru-4]321([N]=C=S)[n]2c3ccc(OC)cc3c3c4c(c5cc(F)c[n+]1c5c32)C(=O)NC4=O (centres unmarked)", "target": "AKT1", "assay": "KinomeScan", "conditions": "0.1 µM", "scale": "relative to: untreated", "endpoint": "remaining binding", "value": "99%"}
{"SMILES": "CNS(=O)(=O)Nc1nccc(Cc2c(C)c3ccc(Oc4ncccc4F)cc3oc2=O)c1F", "target": "AKT1", "assay": "binding, competition with immobilised ligand", "conditions": "10 µM", "endpoint": "remaining binding", "value": "83%"}
{"SMILES": "C=CC(=O)Nc1cccc(-c2cnc3[nH]cc(C(=O)NC(C)(C)C)c3n2)c1", "target": "AKT1", "assay": "kinase activity", "conditions": "0.1 µM", "endpoint": "inhibition", "value": "-1% and 1%"}
{"SMILES": "Cc1cccc(-c2ccc3nc(NC(=O)C4CCOCC4)nn3c2)c1", "target": "AKT1 S473D", "assay": "enzyme activity", "conditions": "10 µM", "endpoint": "remaining activity", "value": "86%"}
{"SMILES": "COc1ccc(NC(=O)Nc2ccc3c(c2)C(=O)N(C(C)CO)CC(C)C(CN(C)Cc2ccc4c(c2)OCO4)O3)cc1 (centres unmarked)", "target": "AKT1", "assay": "binding, competition with immobilised ligand", "conditions": "10 µM", "endpoint": "remaining binding", "value": "87%"}
{"SMILES": "c1ccc2c(Nc3cc(C4CCC4)[nH]n3)nc(Nc3ccc4nc[nH]c4c3)nc2c1", "target": "AKT1", "assay": "enzyme activity, inhibitor", "conditions": "0.25 µM", "endpoint": "remaining activity", "value": "103%"}
{"SMILES": "Nc1ncc(-c2cc(-c3cnn(CC(F)(F)F)c3)ncc2F)nc1C(=O)NC1CNCC(F)C1 (centres unmarked)", "target": "AKT1", "assay": "enzyme activity", "conditions": "1 µM", "scale": "relative to: DMSO control", "endpoint": "remaining activity", "value": "107%"}
{"SMILES": "COc1c(Cl)cccc1Nc1c(-c2ccncc2C#C[C@@]2(C)CCCN2C(=O)/C=C/CN(C)C)[nH]c2c1C(=O)NCC2", "target": "AKT1", "assay": "binding, competition with immobilised ligand", "conditions": "3 µM", "endpoint": "remaining binding", "value": "96%"}
{"SMILES": "COc1cc(Nc2nc(C)cc(-c3cnn4nc(OC)ccc34)n2)cc(C(F)(F)F)c1", "target": "AKT1", "assay": "inhibitor", "conditions": "1 µM", "scale": "relative to: control", "endpoint": "remaining activity", "value": "100%"}
{"SMILES": "O=[N+]([O-])c1ccc(Cn2cc(Cn3cc(CO)nn3)nn2)cc1", "target": "RAC-alpha serine/threonine-protein kinase, PH domain (AKT1, Homo sapiens, UniProt P31749)", "assay": "PIP3 binding to PH domain, SPR", "conditions": "200 µM", "endpoint": "inhibition", "value": "64 ± 7%"}
{"SMILES": "NC(=O)C[C@H]1CCc2sc3ncnc(O[C@H]4CC[C@H](N5CCOCC5)CC4)c3c21", "target": "AKT1", "assay": "enzyme activity, inhibitor", "conditions": "10 µM", "endpoint": "inhibition", "value": "1%"}
{"SMILES": "O=C(O)CCC(=O)c1cccc(NS(=O)(=O)c2c[nH]c3ncccc23)c1", "target": "AKT1", "assay": "enzyme activity, inhibitor, radiometric", "conditions": "10 µM", "endpoint": "activity vs control", "value": "104%"}
{"SMILES": "CC(=O)N1c2ccc(-c3ccc(CNC(=O)c4cn5cc(-c6cnc(N)nc6)nc(N6CCOCC6)c5n4)cc3)cc2CC[C@@H]1C", "target": "AKT1", "assay": "KINOMEscan", "conditions": "10 µM", "endpoint": "remaining binding", "value": "98%"}
{"SMILES": "CNC(=O)C1CCN(c2cc(C)c(F)cc2NC(=O)c2ccc(-c3cc(O)ccc3C)c(C)c2)CC1", "target": "AKT1", "assay": "binding, competition with immobilised ligand", "conditions": "1 µM", "endpoint": "remaining binding", "value": "89%"}
{"SMILES": "CN1CC[C@@H](COc2cnc(C#N)cc2-c2ccn3nc(NC(=O)C4CC4)cc3c2)C1", "target": "AKT1", "assay": "enzyme activity, inhibitor", "conditions": "1 µM", "endpoint": "inhibition", "value": "5%"}
{"SMILES": "CN1CCN(Cc2ccc(NC(=O)c3cccc(C#Cc4cnc(N)c5ncccc45)c3)cc2C(F)(F)F)CC1", "target": "AKT1", "assay": "cell-free assay, competition with immobilised ligand", "conditions": "0.5 µM", "endpoint": "remaining binding", "value": "100%"}
{"SMILES": "CCN1CCN(Cc2ccc(C(=O)Nc3ccc(C)c(NCc4cnc5[nH]ccc5c4OC)c3)cc2C(F)(F)F)CC1", "target": "AKT1", "assay": "binding, competition with immobilised ligand", "conditions": "1 µM", "endpoint": "remaining binding", "value": "100%"}
{"SMILES": "COc1ccc(C(=O)/C=C/c2ccccc2-c2c[nH]c3ccc(C#N)cc23)c(O)c1", "target": "AKT1", "assay": "enzyme activity, inhibitor", "conditions": "20 µM", "endpoint": "inhibition", "value": "14%"}
{"SMILES": "C=C1CCCCCCCCCC(CO)C1=O (centres unmarked)", "target": "AKT1", "assay": "cell-free assay, competition with immobilised ligand", "conditions": "10 µM", "endpoint": "remaining binding", "value": "100%"}
{"note": "Some of these lines once more:"}
{"SMILES": "Cc1cccc(-c2ccc3nc(NC(=O)C4CCCCC4)nn3c2)c1", "target": "AKT1 S473D", "assay": "enzyme activity", "conditions": "10 µM", "endpoint": "remaining activity", "value": "99%"}
{"SMILES": "CNC1C[S+]2CC[S+]3CC[S+](C1)[Ru-4]321([N]=C=S)[n]2c3ccc(OC)cc3c3c4c(c5cc(F)c[n+]1c5c32)C(=O)NC4=O (centres unmarked)", "target": "AKT1", "assay": "KinomeScan", "conditions": "0.1 µM", "scale": "relative to: untreated", "endpoint": "remaining binding", "value": "99%"}
{"SMILES": "CNS(=O)(=O)Nc1nccc(Cc2c(C)c3ccc(Oc4ncccc4F)cc3oc2=O)c1F", "target": "AKT1", "assay": "binding, competition with immobilised ligand", "conditions": "10 µM", "endpoint": "remaining binding", "value": "83%"}
{"SMILES": "C=CC(=O)Nc1cccc(-c2cnc3[nH]cc(C(=O)NC(C)(C)C)c3n2)c1", "target": "AKT1", "assay": "kinase activity", "conditions": "0.1 µM", "endpoint": "inhibition", "value": "-1% and 1%"}
